# Measured values gathered from unrelated publications.
# Each numbered part is a random draw from the data of one study; scales do not carry over between parts. Several values in a cell are separate wells, animals, samples, runs or records.
# Chain of UniProt Q99640 (whole entry, looked up): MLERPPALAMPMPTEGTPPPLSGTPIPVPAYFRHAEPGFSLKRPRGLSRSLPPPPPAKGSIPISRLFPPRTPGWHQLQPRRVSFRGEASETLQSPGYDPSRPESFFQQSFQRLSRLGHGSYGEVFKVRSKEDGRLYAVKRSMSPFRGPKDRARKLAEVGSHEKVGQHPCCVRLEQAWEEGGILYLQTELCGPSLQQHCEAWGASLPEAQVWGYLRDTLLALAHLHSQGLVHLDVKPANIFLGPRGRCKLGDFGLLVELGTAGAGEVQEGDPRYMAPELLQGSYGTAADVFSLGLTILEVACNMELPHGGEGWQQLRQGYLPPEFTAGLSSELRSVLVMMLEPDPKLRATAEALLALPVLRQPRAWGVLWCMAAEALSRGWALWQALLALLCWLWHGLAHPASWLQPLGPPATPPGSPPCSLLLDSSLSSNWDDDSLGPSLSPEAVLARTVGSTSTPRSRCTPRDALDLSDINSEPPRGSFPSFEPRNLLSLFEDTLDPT
# Chain of UniProt Q8IVW4 (whole entry, looked up): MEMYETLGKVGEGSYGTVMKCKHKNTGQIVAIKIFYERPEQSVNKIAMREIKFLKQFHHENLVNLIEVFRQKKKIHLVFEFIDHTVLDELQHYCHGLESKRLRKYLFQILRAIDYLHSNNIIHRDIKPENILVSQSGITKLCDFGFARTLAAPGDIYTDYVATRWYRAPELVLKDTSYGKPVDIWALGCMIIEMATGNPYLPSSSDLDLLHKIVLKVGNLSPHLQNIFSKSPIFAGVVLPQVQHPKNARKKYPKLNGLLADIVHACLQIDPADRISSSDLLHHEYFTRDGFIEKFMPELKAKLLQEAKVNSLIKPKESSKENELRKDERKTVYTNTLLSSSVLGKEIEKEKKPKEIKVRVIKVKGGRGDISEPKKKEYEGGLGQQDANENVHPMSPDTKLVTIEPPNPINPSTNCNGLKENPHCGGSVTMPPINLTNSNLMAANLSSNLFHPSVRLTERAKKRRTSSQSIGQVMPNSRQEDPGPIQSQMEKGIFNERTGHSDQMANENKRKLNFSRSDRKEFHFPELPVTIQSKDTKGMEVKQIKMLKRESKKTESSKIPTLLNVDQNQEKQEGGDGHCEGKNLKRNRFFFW
# Chain of UniProt O96017 (whole entry, looked up): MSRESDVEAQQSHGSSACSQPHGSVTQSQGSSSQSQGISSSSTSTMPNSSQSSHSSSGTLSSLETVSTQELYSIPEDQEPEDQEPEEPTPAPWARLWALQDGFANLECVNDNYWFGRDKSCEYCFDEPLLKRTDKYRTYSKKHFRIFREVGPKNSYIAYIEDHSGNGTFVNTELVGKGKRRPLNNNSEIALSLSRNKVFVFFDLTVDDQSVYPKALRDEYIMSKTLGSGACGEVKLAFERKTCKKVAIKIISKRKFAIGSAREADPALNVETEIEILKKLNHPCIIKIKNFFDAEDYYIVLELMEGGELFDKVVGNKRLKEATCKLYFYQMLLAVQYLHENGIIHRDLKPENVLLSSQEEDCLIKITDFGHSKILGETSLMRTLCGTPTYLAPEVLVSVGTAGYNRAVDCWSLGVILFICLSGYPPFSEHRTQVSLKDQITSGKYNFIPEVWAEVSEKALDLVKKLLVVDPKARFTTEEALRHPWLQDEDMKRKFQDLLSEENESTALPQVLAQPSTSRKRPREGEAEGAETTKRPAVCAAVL
# Chain of UniProt Q15418 (whole entry, looked up): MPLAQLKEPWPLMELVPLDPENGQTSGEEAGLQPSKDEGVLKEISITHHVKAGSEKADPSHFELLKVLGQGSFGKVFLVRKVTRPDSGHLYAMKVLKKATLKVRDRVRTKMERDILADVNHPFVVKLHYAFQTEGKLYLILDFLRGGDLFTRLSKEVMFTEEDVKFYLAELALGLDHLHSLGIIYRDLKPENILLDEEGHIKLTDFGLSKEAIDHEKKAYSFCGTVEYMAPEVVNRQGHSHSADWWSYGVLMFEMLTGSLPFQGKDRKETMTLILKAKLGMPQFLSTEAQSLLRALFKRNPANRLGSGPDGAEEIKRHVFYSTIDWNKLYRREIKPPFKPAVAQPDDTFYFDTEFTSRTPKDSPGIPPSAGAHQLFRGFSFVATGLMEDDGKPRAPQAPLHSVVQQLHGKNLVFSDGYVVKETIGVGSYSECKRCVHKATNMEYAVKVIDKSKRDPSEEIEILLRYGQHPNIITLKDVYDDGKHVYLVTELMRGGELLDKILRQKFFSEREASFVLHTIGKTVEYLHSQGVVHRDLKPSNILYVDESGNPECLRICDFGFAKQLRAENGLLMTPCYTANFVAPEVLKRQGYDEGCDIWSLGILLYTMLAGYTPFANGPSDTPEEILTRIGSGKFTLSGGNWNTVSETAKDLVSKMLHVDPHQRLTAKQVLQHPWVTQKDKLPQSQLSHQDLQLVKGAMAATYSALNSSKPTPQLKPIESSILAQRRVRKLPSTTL
# Chain of UniProt Q9UF33 (whole entry, looked up): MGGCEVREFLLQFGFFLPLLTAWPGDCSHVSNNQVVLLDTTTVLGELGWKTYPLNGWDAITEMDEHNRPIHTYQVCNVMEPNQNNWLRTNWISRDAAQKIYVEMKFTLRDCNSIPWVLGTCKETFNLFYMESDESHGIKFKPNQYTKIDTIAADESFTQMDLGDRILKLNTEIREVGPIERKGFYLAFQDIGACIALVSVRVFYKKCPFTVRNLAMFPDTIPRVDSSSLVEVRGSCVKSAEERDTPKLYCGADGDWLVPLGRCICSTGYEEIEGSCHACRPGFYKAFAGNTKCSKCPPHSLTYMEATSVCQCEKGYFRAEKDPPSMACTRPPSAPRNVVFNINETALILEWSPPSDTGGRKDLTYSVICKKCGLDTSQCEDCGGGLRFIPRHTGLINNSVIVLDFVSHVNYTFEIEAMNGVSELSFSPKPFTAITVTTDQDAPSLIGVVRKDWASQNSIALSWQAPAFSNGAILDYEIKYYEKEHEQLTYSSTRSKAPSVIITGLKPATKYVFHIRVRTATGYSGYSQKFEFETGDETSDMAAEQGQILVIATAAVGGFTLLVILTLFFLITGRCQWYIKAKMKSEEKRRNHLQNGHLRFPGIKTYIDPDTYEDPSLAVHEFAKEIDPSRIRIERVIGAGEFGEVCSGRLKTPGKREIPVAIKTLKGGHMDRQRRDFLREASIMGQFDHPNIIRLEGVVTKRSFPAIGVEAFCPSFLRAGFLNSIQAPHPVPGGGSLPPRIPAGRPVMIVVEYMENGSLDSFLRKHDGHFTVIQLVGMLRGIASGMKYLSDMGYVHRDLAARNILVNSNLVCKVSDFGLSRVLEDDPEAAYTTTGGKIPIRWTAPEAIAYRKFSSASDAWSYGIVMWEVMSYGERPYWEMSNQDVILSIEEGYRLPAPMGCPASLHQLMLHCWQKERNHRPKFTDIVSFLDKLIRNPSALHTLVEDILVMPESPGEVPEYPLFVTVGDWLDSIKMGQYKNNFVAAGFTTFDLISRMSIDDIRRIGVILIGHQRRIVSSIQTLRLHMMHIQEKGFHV
# Chain of UniProt P54764 (whole entry, looked up): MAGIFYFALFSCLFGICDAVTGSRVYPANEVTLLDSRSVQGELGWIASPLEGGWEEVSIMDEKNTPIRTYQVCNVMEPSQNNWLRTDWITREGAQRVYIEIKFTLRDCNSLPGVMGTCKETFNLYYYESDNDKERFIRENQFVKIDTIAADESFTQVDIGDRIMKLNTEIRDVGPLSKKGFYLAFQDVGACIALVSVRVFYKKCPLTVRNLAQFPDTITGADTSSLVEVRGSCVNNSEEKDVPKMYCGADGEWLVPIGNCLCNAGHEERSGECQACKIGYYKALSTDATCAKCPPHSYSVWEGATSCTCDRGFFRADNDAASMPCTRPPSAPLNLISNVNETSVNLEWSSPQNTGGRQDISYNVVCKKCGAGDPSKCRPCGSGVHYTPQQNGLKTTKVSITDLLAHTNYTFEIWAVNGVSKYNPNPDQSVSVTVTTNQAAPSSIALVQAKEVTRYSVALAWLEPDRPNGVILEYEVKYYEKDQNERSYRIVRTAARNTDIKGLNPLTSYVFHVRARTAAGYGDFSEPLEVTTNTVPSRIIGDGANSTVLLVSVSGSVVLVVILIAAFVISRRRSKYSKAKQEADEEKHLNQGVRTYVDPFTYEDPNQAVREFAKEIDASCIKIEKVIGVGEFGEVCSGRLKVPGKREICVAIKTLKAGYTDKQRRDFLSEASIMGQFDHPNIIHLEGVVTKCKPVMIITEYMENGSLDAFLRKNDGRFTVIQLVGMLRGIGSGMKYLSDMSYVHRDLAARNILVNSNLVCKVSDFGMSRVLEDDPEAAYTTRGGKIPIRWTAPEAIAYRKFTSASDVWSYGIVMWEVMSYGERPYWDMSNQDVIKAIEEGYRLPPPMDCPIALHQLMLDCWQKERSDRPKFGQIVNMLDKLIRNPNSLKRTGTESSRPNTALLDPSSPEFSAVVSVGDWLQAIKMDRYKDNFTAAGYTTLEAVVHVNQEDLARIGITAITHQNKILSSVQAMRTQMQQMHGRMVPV
# Chain of UniProt P42680 (whole entry, looked up): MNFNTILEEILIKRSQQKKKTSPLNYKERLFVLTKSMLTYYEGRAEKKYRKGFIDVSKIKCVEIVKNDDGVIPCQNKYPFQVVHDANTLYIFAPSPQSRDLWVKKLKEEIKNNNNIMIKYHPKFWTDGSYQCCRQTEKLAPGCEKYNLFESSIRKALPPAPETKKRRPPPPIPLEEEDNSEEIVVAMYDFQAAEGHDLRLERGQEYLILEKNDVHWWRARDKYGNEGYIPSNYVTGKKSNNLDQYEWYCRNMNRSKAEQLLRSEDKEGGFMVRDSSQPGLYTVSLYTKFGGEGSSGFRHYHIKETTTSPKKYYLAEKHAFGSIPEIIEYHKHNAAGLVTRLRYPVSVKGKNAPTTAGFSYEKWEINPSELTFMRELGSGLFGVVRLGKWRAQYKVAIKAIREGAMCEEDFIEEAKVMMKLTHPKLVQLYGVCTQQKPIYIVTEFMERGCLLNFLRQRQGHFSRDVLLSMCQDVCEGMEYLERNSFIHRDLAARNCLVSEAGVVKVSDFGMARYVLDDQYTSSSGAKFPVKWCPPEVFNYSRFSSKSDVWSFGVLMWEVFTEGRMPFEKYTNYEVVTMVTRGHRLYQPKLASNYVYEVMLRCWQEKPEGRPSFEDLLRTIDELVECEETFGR

# Block 1
# Compound: O=C(O)C1(O)Oc2cc(F)ccc2N(Cc2ccccc2)C1=O (stereo not shown)
organism,assay,test system,setting,how to read,inhibition
Arabidopsis thaliana,hypocotyl length,Col-0,"3.125 µg/mL, 7 days, seed germination, dark",,21.9%
Arabidopsis thaliana,hypocotyl length,"Col-0, seedlings","50 µg/mL, with BCAA",,7.36%
Arabidopsis thaliana,root length,"Col-0, seedlings",100 µg/mL,relative to: water control,99.2%
Arabidopsis thaliana,root length,"Col-0, seedlings",12.5 µg/mL,,73.4%
Arabidopsis thaliana,root length,"Col-0, seedlings",3.125 µg/mL,relative to: water control,41.1%
Oryza sativa,fresh weight,,"soil surface spray, 150 g ai/ha, 21 days, pre-emergence crop safety",,0%
Arabidopsis thaliana,hypocotyl length,"Col-0, seedlings",25 µg/mL,,59.4%
Arabidopsis thaliana,root length,Col-0,"6.25 µg/mL, 7 days, seed germination, dark",,60.1%
Arabidopsis thaliana,root length,"Col-0, seedlings",100 µg/mL,,99.2%
Alopecurus japonicus,fresh weight,,"150 g ai/ha, pre-emergence treatment",,62.3% and 63.2% and 60.8%
Arabidopsis thaliana,root length,"Col-0, seedlings",6.25 µg/mL,,60%
Arabidopsis thaliana,hypocotyl length,"Col-0, seedlings",3.125 µg/mL,,21.9%
Setaria viridis,fresh weight,,"150 g ai/ha, pre-emergence treatment",,5.4% and 4.8% and 4.2%
Arabidopsis thaliana,root length,Col-0,"3.13 µg/mL, 7 days, seed germination, dark",,41.1%
Zea mays,fresh weight,,"soil surface spray, 150 g ai/ha, 21 days, pre-emergence crop safety",,21.4% and 16.4% and 17.1%
Arabidopsis thaliana,hypocotyl length,"Col-0, seedlings",6.25 µg/mL,,32.7%
Arabidopsis thaliana,root length,Col-0,"25.0 µg/mL, 7 days, seed germination, dark",,88.3%
Arabidopsis thaliana,root length,Col-0,"12.5 µg/mL, 7 days, seed germination, dark",,73.4%
Eclipta prostrata,fresh weight,,"150 g ai/ha, post-emergence treatment",,89.2% and 87.6% and 86.6%
Abutilon theophrasti,fresh weight,,"150 g ai/ha, pre-emergence treatment",,70.5% and 72.5% and 72.4%

# Block 2
# SMILES: CN1CCC[C@H]1COc1nc2c(c(N3CCN(C(=O)C(F)(F)F)[C@@H](CC#N)C3)n1)CCN(c1cccc3cccc(Cl)c13)C2
# Target: GTPase HRas (HRAS, Homo sapiens, UniProt P01112)
# Observed: binding
# Method: NanoBRET
# Cells: HEK293 (live)
# Reading: lower = stronger binding
concentration,target engagement
0.09151 µM,99.9% and 96.2% and 95.1%
0.5686 µM,110% and 101% and 104%
1.523 µM,193% and 127% and 202%
1.046 µM,130% and 99.1% and 138%

# Block 3
# Cell line: Gaucher fibroblasts L444P/L444P
# Method: 4-MUG hydrolysis, cell lysate
# Concentration: 0.1 µM
# Relative to: DMSO
Structure (SMILES),GCase activity
Ic1ccc(Nc2nc(NCCc3c[nH]c4ccccc34)nc(NCCN3CCOCC3)n2)cc1,106% and 100% and 96% and 95%
CCOc1ccc2nc(Sc3nc(NCCN4CCOCC4)nc(Nc4ccc(I)cc4)n3)sc2c1,90.9% and 87.4% and 105% and 95.6%
Ic1ccc(Nc2nc(NCCN3CCOCC3)nc(N3CC4CCC(C3)O4)n2)cc1,111% and 110% and 107% and 103% and 105%
COc1ccc(Nc2nc(NCCN3CCOCC3)nc(N3CCOCC3)n2)cc1,93% and 94.5% and 110% and 91.1% and 103%
Ic1ccc(Nc2nc(NCCN3CCOCC3)nc(N3CCNCC3)n2)cc1,101% and 94.9% and 94.4% and 97.8% and 96.8%
Ic1ccc(Nc2nc(NCCN3CCOCC3)nc(N3CCCCC3)n2)cc1,106% and 103% and 93.3% and 105% and 96.1% and 100%
c1ccc(Nc2nc(NCCN3CCOCC3)nc(N3CCOCC3)n2)cc1,103% and 93.2% and 101% and 92.8% and 91.8% and 91.6%
Ic1ccc(Nc2nc(NCCCN3CCOCC3)nc(N3CCOCC3)n2)cc1,102% and 110% and 109% and 106% and 108%

# Block 4
# SMILES: COc1cc(-c2nc3ccc(C(=O)NCCCN(C)C)cc3n2C2CCC2)cc(OC)c1OC
# Method: NanoBRET
# Concentration: 1 µM
target,target occupancy
"Ribosomal protein S6 kinase alpha-6 (RPS6KA6, Homo sapiens, UniProt Q9UK32)",2.37%
"Tyrosine-protein kinase receptor UFO (AXL, Homo sapiens, UniProt P30530)",-0.89%
"Ephrin type-A receptor 4 (EPHA4, Homo sapiens, UniProt P54764)",2.09%
"Mitogen-activated protein kinase kinase kinase 19 (MAP3K19, Homo sapiens, UniProt Q56UN5)",0.83%
"Cyclin-dependent kinase-like 3 (CDKL3, Homo sapiens, UniProt Q8IVW4)",-11.1%
"Serine/threonine-protein kinase SIK3 (SIK3, Homo sapiens, UniProt Q9Y2K2)",-1.42%
"cAMP-dependent protein kinase catalytic subunit alpha (PRKACA, Homo sapiens, UniProt P17612)",-0.64%
"Serine/threonine-protein kinase 10 (STK10, Homo sapiens, UniProt O94804)",1.89%
"Mitogen-activated protein kinase 4 (MAPK4, Homo sapiens, UniProt P31152)",-3.47%
"Serine/threonine-protein kinase STK11 (STK11, Homo sapiens, UniProt Q15831)",-1.56%
"Membrane-associated tyrosine- and threonine-specific cdc2-inhibitory kinase (PKMYT1, Homo sapiens, UniProt Q99640)",5.3%
"LIM domain kinase 2 (LIMK2, Homo sapiens, UniProt P53671)",-0.38%
"Ribosomal protein S6 kinase alpha-1 (RPS6KA1, Homo sapiens, UniProt Q15418)",1.41%
"Homeodomain-interacting protein kinase 3 (HIPK3, Homo sapiens, UniProt Q9H422)",-2.17%
"Calcium/calmodulin-dependent protein kinase type 1 (CAMK1, Homo sapiens, UniProt Q14012)",-1.9%
"Serine/threonine-protein kinase ICK (CILK1, Homo sapiens, UniProt Q9UPZ9)",-6.15%
"Serine/threonine-protein kinase Chk2 (CHEK2, Homo sapiens, UniProt O96017)",-2.95%
"Tyrosine-protein kinase Tec (TEC, Homo sapiens, UniProt P42680)",-2.73%
"Mitogen-activated protein kinase 11 (MAPK11, Homo sapiens, UniProt Q15759)",-0.47%
"Ephrin type-A receptor 6 (EPHA6, Homo sapiens, UniProt Q9UF33)",-11.9%
"Serine/threonine-protein kinase BRSK2 (BRSK2, Homo sapiens, UniProt Q8IWQ3)",-0.23%
"Serine/threonine-protein kinase SIK2 (SIK2, Homo sapiens, UniProt Q9H0K1)",-0.65%
"BMP-2-inducible protein kinase (BMP2K, Homo sapiens, UniProt Q9NSY1)",1.39%
"Serine/threonine-protein kinase 16 (STK16, Homo sapiens, UniProt O75716)",0.66%
"Serine/threonine-protein kinase LATS1 (LATS1, Homo sapiens, UniProt O95835)",-9.73%

# Block 5
# Structure (SMILES): Cc1ncc(-c2cc3c(C#N)c(-c4c(C)ccc(O)c4C)cnc3[nH]2)cn1
# Target: Membrane-associated tyrosine- and threonine-specific cdc2-inhibitory kinase (PKMYT1, Homo sapiens, UniProt Q99640)
observed,mode,method,concentration,inhibition
,,,0.00051 µM,4.73%
cell-free assay,,TR-FRET,0.1235 µM,99.1%
cell-free assay,,TR-FRET,3.333 µM,102%
,,,0.3704 µM,100%
,,,0.01372 µM,95%
cell-free assay,,TR-FRET,13.72 nM,96.6%
cell-free assay,inhibitor,TR-FRET,510 pM,4.44%
cell-free assay,,TR-FRET,1.52 nM,47.3%
,,,0.000508 µM,4.73%
cell-free assay,,TR-FRET,0.3704 µM,99.7%

# Some of these lines once more (block 4):
target,target occupancy
"Ribosomal protein S6 kinase alpha-6 (RPS6KA6, Homo sapiens, UniProt Q9UK32)",2.37%
"Tyrosine-protein kinase receptor UFO (AXL, Homo sapiens, UniProt P30530)",-0.89%
"Ephrin type-A receptor 4 (EPHA4, Homo sapiens, UniProt P54764)",2.09%
"Mitogen-activated protein kinase kinase kinase 19 (MAP3K19, Homo sapiens, UniProt Q56UN5)",0.83%
"Cyclin-dependent kinase-like 3 (CDKL3, Homo sapiens, UniProt Q8IVW4)",-11.1%
"Serine/threonine-protein kinase SIK3 (SIK3, Homo sapiens, UniProt Q9Y2K2)",-1.42%
"cAMP-dependent protein kinase catalytic subunit alpha (PRKACA, Homo sapiens, UniProt P17612)",-0.64%
"Serine/threonine-protein kinase 10 (STK10, Homo sapiens, UniProt O94804)",1.89%
"Mitogen-activated protein kinase 4 (MAPK4, Homo sapiens, UniProt P31152)",-3.47%
"Serine/threonine-protein kinase STK11 (STK11, Homo sapiens, UniProt Q15831)",-1.56%
"Membrane-associated tyrosine- and threonine-specific cdc2-inhibitory kinase (PKMYT1, Homo sapiens, UniProt Q99640)",5.3%
